Published values gathered from unrelated publications.
Numbered parts are unrelated; each lists some results of a single study.

Study 1 — technique: universal PBM; molecule type: double-stranded DNA, one strand shown; medium: in vitro; tested at: not given; direction: higher = stronger binding
Target: Sal-like protein 4, full length isoform B (SALL4, Homo sapiens, UniProt Q9UJQ4-2, residues 1-616)
Setting: 8-mer, flanks averaged, mean of replicates
Target sequence (chain): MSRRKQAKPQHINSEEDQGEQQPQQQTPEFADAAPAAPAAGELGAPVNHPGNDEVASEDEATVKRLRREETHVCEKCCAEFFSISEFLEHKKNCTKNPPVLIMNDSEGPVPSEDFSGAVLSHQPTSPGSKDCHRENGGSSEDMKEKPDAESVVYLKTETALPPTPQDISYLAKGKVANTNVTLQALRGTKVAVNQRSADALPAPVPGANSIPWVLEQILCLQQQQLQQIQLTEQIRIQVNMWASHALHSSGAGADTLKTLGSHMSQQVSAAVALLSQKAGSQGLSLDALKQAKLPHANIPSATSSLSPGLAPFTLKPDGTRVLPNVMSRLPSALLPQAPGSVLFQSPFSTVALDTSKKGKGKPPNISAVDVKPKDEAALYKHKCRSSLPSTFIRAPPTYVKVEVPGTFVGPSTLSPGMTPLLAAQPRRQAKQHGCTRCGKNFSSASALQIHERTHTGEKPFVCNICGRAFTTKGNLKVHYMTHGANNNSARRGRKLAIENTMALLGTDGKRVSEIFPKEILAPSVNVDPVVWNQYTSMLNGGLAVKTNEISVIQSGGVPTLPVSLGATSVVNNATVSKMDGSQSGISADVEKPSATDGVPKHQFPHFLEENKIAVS
For `AATCGAAT`, the E-score was 0.143.
The E-score of `GAAACCAC` is reported as -0.144.
With `TACCCACA` the E-score was -0.00847.
`ACTACCTA` gave an E-score of 0.0874.
`AAATACTA` gave an E-score of 0.28.
The E-score of `TCCTGCCA` is reported as -0.138.
`AGGGTTCA` gave an E-score of -0.104.
`AATATTAC` has an E-score of 0.462.
`ATAAATGG` has an E-score of 0.293.
With `AGTGCAGC` the E-score was -0.106.
`AACACGAT` gave an E-score of 0.137.
The E-score of `CATTCGTC` is reported as 0.0387.
The E-score of `AGGTTGTA` is reported as 0.136.
For `AGGAATGG`, the E-score was -0.0411.
For `AGCTAAAA`, the E-score was 0.178.
With `GTGGGGAA` the E-score was 0.0247.
`AGTTGTTA` has an E-score of 0.136.
With `ACAAGGAA` the E-score was 0.072.
`AACCAAGA` has an E-score of 0.125.
`AAAAAACA` gave an E-score of 0.273.
With `CCACGACA` the E-score was -0.0867.
For `GTGCGGCA`, the E-score was -0.12.
The E-score of `AGGGAATA` is reported as 0.147.
The E-score of `CCTTGTAC` is reported as 0.0904.
The E-score of `ATTAAAGC` is reported as 0.22.

Study 2 — technique: protein-binding microarray; molecule type: double-stranded DNA, one strand shown; medium: in vitro; tested at: 2200 nM top; setting: 60-bp whole probe; with: salmon DNA 0.4 mg/ml; relative to: random background probes; direction: higher = stronger binding; all sequences stand within: GCCTAGCAC … GTCTTGATTCGCTTGACGCTGCTG
Target: Interferon regulatory factor 7, full length, phosphomimetic (IRF7, Homo sapiens, UniProt Q92985, residues 1-503, S471D/S472D/S475D/S476D/S477D/S483D/S484D/S487D)
UniProt Q92985, sequence (whole entry, unmodified, looked up): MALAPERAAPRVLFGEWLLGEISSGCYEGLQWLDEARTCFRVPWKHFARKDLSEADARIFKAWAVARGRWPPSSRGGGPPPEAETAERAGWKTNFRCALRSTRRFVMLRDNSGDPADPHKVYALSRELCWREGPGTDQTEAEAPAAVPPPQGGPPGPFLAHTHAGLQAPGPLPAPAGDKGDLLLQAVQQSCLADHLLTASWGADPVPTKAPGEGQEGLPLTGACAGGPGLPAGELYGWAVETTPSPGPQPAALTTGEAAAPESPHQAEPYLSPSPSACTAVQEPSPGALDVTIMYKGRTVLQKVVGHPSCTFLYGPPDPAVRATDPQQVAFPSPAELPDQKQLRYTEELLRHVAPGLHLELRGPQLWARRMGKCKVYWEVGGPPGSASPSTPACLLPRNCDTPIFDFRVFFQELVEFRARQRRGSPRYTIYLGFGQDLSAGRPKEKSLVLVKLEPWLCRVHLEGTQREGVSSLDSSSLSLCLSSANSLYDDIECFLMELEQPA
For `AAAAATGATTGGTTGAACATGTGCTAG`, “fitted relative affinity” read -0.663 z-score.
`TTAGGTTTCGTTATCGGTTAGTGCTAG` — result for “fitted relative affinity”: 6.88 z-score.
Under “fitted relative affinity”, `GACGGTCTCGGCTTCGGGACGTGCTAG` is recorded as -0.271 z-score.
`TTAGGTATCGACTATCGGTTTGTGCTA`: “fitted relative affinity” 1.39 z-score.
Under “fitted relative affinity”, `TTAGATCTCACTTTCGATTAGTGCTAG` is recorded as 7.61 z-score.
`CCCTTTCTCAACCTCCAGAGGTGCTAG` — result for “fitted relative affinity”: 1.99 z-score.
`GAAAATGCCCTTTTGGTGAGGTGCTAG`: “fitted relative affinity” 1.02 z-score.
`TTAGAACTGCTACTGCTTTAGTGCTAG` — result for “fitted relative affinity”: -0.349 z-score.
Under “fitted relative affinity”, `TTAGGTTTCCTATCCCTTTAGTGCTAG` is recorded as 2.16 z-score.
`TCACATCTCGGAGATCTCACTGTGCTA`: “fitted relative affinity” 1.18 z-score.
`TTAGGTTTCCTTTTCCTTTAGTGCTAG`: “fitted relative affinity” 7.22 z-score.
Under “fitted relative affinity”, `GACGATTTCGGTCTCGAGACGTGCTAG` is recorded as 3.1 z-score.
`TTAGGTATCCTGCTCCTTTAGTGCTAG` — result for “fitted relative affinity”: 1 z-score.
`GACGATTTCGGGTATCGAGAAGTGCTA`: “fitted relative affinity” 2.73 z-score.
Under “fitted relative affinity”, `CTTAACCTGGGTCTCTGAAGGTGCTAG` is recorded as -0.0244 z-score.
`TCACCACTCATGCCTCTTACTGTGCTA` — result for “fitted relative affinity”: 1.7 z-score.
`TTAGGTCTCGCTTTCGGTTAGTGCTAG` — result for “fitted relative affinity”: 7.69 z-score.
For `TCATCTTTCGTTACTTCACTGTGCTAG`, “fitted relative affinity” read 4.38 z-score.
Under “fitted relative affinity”, `TTAGGTCTCCTTTTCCTTCAGTGCTAG` is recorded as 1.83 z-score.
`TTAGAGCTCAGACTGGATTAGTGCTAG`: “fitted relative affinity” -0.599 z-score.
`TCAGGTTTTTTTTTAATACTGTGCTAG`: “fitted relative affinity” 0.41 z-score.
Under “fitted relative affinity”, `TTAGATATTGGGTATCGATTAGTGCTA` is recorded as -0.034 z-score.
For `GACGGTATCCTTCTCCCGACGTGCTAG`, “fitted relative affinity” read 1.04 z-score.
For `GACGGATTCGGTATCGGGACGTGCTAG`, “fitted relative affinity” read 1.6 z-score.
For `GACGATTTTGGGTTTCGAGACGTGCTA`, “fitted relative affinity” read 2.79 z-score.

Study 3 — technique: RNA Bind-n-Seq; molecule type: RNA; medium: in vitro; tested at: not given; relative to: input RNA pool; direction: higher = stronger binding
Target: RING finger protein unkempt homolog, zinc fingers 1-6, GST-SBP tag (UNK, Homo sapiens, UniProt Q9C0B0, residues 30-357)
UniProt Q9C0B0, sequence (30-357, looked up): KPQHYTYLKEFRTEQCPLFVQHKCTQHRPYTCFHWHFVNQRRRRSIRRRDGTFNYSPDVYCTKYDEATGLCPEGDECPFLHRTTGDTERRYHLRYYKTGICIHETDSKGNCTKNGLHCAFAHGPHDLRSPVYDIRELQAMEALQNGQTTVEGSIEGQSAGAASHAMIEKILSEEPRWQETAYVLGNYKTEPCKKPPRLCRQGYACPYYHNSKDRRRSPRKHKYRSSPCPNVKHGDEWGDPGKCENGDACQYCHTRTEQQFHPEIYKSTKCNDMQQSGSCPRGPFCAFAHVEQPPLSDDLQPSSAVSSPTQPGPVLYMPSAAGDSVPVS
Setting: RNA with constant flanks, human and mouse sites, ends assumed
All sequences stand within: GGGAGUUCUACAGUCCGACGAUC … CAACAGAGGAUUGAGCAUCA
With `CCAGAUGGCUGGUUCUCUAAAGGCAGCAACUACAGUGAAAUCCUAGACAAGUAUUUUAAGAACUUUGAUAAUGGUGAUUCUCGCCUGGACUCCAGUGAAUUCCUGAAGUUUGUGGAACAG` the bound/input enrichment was 1.05 ratio.
For `CAUGGCGGCCGCCCCGGAGCCCCACGAGACGGAGAAAAAGCCCUUCAAGCUCCUAGGUAUUUUAGAUGUUGAGAACACUCCAUGUGCUCGAGAAUCUAUACUCUAUGGCUCAUUAGGAUC`, the bound/input enrichment was 0.662 ratio.
With `GAUCUUGGACUUGAUAUUGGUGCCCAGGGAGAACCCCUUGGAUAUCGCCAGGAUGAUCCUAGCUAUCGUUCUUUUCACUCUGGUGGAUAUGGCCAGGAUGCCUUGGGUAUGGACCCCAUG` the bound/input enrichment was 0.152 ratio.
With `UUUUGAGAAGCUGAUGGAACAUUUCAGGAAUGAAGAUAAUAACAUAGAUUUUAUGGUGGCCUCUAUGCAGUUUAUUAACAUUGUAGUCCAUUCAGUAGAAGACAUGAACUUCAGAGUUCA` the bound/input enrichment was 0.538 ratio.
With `UUAGGUCAGCCUGCCCUCUCUCUCCCAGACCACAUAAGCCUCCCUGUGCUCACUGUGCCCCAAAGUGCAAUUACUCACACUCAGUGAGGACACCAGGCAGCUACAGACUGCCCACUAAGC` the bound/input enrichment was 0.947 ratio.
For `AAAACUGAUUUAGAUAAUUCUAUAGGAAUUAAAAAAAUGAAAACCUCAUGUAAAUUUAAGAUAGAUUCAAACAUAAGUCCGAAGAAGGAUAGCAAAGAAUUUACACAAAAAAAUAAGAAA`, the bound/input enrichment was 4.7 ratio.
`UGCAGGAAGGAAAUUGACGAACACGUGACGCGGUCGGGCGGACCACUGCAGACUGAGCGGUGGACCGAAUUGGGACCGCUGGCUUAUAAGCGAUCAUGUUUCUCCAGUAUUACCUCAACG` has a bound/input enrichment of 0.0702 ratio.
`GAAUUUGCAGCAGGUCCUGCUCAAUCUGGAAUUUUGUCAGAUCGUGAAGUGGUAAACCUCUUUCUUCAUUUUACUGUCAACCCUAAACCCCGAGUUGAAUACAUUGACCGACCAAGAUGC` has a bound/input enrichment of 0.239 ratio.
With `CUGAGAGAGCUGACAUCCCAGCAUCCUUACGCUGAAGUUUUCAUCGGGCGGCCACAUGUGUGGACUGUUGACCUCAACAAUCAGGAGGAAGUAGAGGAUGCAGUGAAAGCAAUUUUAAAU` the bound/input enrichment was 0.238 ratio.
The bound/input enrichment of `CCUGCCUUCUCAUCUUUAUAGUGCCACGAUUUAUACAGUCCUGUGUCUGACCUGUCAUUUCAUAGCCUGCAGUUCUUGCCAUUGGCACACUUAGAUUUGUCUUCACCCACCAGCUUCGUU` is reported as 0.604 ratio.
`AGGCGGAGAGAACUGGCACUCUUCUCGGAUGACCGUUCACGGACAGUACAAUACCACAUAUAUAGUGUACACACACAUACAAAUGUGUCGAUGCCCAUUCACAAACAGUACAGUACACGC` gave a bound/input enrichment of 0.142 ratio.

Study 4 — technique: RNA Bind-n-Seq; molecule type: RNA; medium: in vitro; tested at: 365 nM; relative to: no-protein control; direction: higher = stronger binding
Target: RNA binding protein fox-1 homolog 2, RRM domain, GST-SBP tag (RBFOX2, Homo sapiens, UniProt O43251-10, residues 100-194)
Setting: natural RNA segment, single round, ends assumed
All sequences stand within: GGGAGUUCUACAGUCCGACGAUC … UGGAAUUCUCGGGUGCCAA
Target sequence (chain): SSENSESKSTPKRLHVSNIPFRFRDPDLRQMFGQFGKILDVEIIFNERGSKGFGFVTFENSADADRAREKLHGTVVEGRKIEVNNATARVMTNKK
Under “RBNS enrichment (R)”, `CAGUGUGCCCAGCAGUUUCAGACCUGACUCUGGAGGGAAUUUGGAGACAGUGUAGACAGCAGCUCUGCUCUGUAUUCUUUUUGACAAAACCAGAACAGUAGAAGUAGCCA` is recorded as 0.281.
Under “RBNS enrichment (R)”, `UGGACAAAAGGUUAUCUGCUCUUGGCCAUCUGGUGGUGGUGGCGGCCCAGAGUCUGAAGAAAUGGCACAGGGACAGUGAAUGGUAGUGUUGCCACCCUGUGCUGAGGCCU` is recorded as 1.42.
Under “RBNS enrichment (R)”, `UUUUUUCUCUUCUUUUUUAAAAGAUAGGUAGGGUCUUGCUAGAUAUCUCUAGCAAGCCUGUUUCUUGUCAGGUAGCCCAGGAUGGCCUUGAACUCUUAAUCCUCCGCCUU` is recorded as 0.367.
`UAACUUUGCCCACAUUUGCUUCCGGAAGCAGCGCACAGCUGUCUGUAUGUUUAAAAGAUAGCAUCUAGAAUGAUCACUUGUGCUUAGCGUAGCAUUGUAAGCGCUGAAGU` — result for “RBNS enrichment (R)”: 3.33.
Under “RBNS enrichment (R)”, `UAAUUUUUAACCAGAUAAGGCUUUCUAUGCAUCCACAGGUGCCUUUGUUUUAACUGUGGAUUUAUUGAUUGCUAACCUCUACAGAUAUGAUGAUAGGGCAAGCAUUCUUC` is recorded as 8.33.
`GCUGUCUUGGAGGUAAGUGGAAGUAGUGGGCCCUGCUUCUUUUCUUUGUAGCCUUCCGGCUACAUCCCCUUCCCAGUUGUGGACCAAUGCAUCUCUAGAGACAGAUACUA`: “RBNS enrichment (R)” 0.526.
For `UUAAGAUAGUUUGGCUCCAGAGUUGGUGUUUUUAACCACUGUGUUUUCUCACUUUUGUUCAGUGUUUUUAUAAUAUUUGAUAAUAAAAUUCAAGAAAAUCCUAACUAAUG`, “RBNS enrichment (R)” read 0.393.
For `AAUAGAAACCAGCAAGUGUAUACUGUGAUUUAUUUUAAUGUAUUCUUAAGGACAGAAUGGAAAUUCUUUAAAAAAAAUUUUUUUUCCGACCUUCAAUUCAAGGGGUCAUU`, “RBNS enrichment (R)” read 0.791.
`UAAAACAAACAAACAAACAAACAGUUUUCAGAAGUUCUUAAGGCAAGAGUGAAUUUCUGUGGAUUUUACUGGUCCCAGCUUUAGGUUCUUUACGACACUAACAGGACUGC`: “RBNS enrichment (R)” 0.56.

Some of these lines once more (study 2):
Under “fitted relative affinity”, `TTAGGTTTCCTATCCCTTTAGTGCTAG` is recorded as 2.16 z-score.
For `GACGGTATCCTTCTCCCGACGTGCTAG`, “fitted relative affinity” read 1.04 z-score.
`TTAGAACTGCTACTGCTTTAGTGCTAG` — result for “fitted relative affinity”: -0.349 z-score.
Under “fitted relative affinity”, `TTAGATCTCACTTTCGATTAGTGCTAG` is recorded as 7.61 z-score.
